Measured values pooled from the literature.
Each line is one published result; not all experiments were run side by side.

| SMILES | technique | species | sample | route | dose | Tmax [h] |
| --- | --- | --- | --- | --- | --- | --- |
| CC(C)[C@H]1NC(=O)C[C@H]2/C=C/CCSSC[C@@H](NC1=O)C(=O)N[C@H](Cc1cccc3ccccc13)C(=O)NCC(=O)O2 | – | BALB/cAJcl-nu/nu mice | plasma | intraperitoneal or oral | dose not given | 0.25 |
| CCCCCCCCCCCCCCCC(=O)NCCCC[C@H](NC(=O)[C@H](CCC(=O)O)NC(=O)[C@H](Cc1ccc(O)cc1)NC(=O)[C@H](CCC(=O)O)NC(=O)COCC(=O)NCCCOCCOCCOCCCNC(=O)[C@H](Cc1ccccc1)NC(=O)[C@H](CC(N)=O)NC(=O)[C@H](Cc1c[nH]cn1)NC(=O)[C@@H](NC(=O)[C@H](CC(=O)O)NC(=O)[C@H](CCC(N)=O)NC(=O)[C@H](CC(C)C)NC(=O)[C@H](CCCCN)NC(=O)[C@H](CCCCN)NC(=O)[C@H](CCCNC(=N)N)NC(=O)[C@H](CC(C)C)NC(=O)[C@H](Cc1c[nH]c2ccccc12)NC(=O)[C@H](CCC(=O)O)NC(=O)[C@@H](NC(=O)[C@H](CCCNC(=N)N)NC(=O)[C@H](CCC(=O)O)NC(=O)[C@H](CCSC)NC(=O)[C@H](CO)NC(=O)[C@H](CC(N)=O)NC(=O)[C@H](CC(C)C)NC(=O)[C@H](Cc1c[nH]cn1)NC(=O)[C@H](CCCCN)NC(=O)CNC(=O)[C@H](CC(C)C)NC(=O)[C@H](CC(N)=O)NC(=O)[C@H](Cc1c[nH]cn1)NC(=O)[C@H](CCSC)NC(=O)[C@H](CC(C)C)NC(=O)[C@H](CCC(N)=O)NC(=O)[C@@H](NC(=O)[C@H](CCC(=O)O)NC(=O)[C@H](CO)NC(=O)[C@@H](NC(=O)[C@@H](N)CO)C(C)C)[C@@H](C)CC)C(C)C)C(C)C)C(=O)N[C@@H](CCC(=O)O)C(=O)N[C@@H](Cc1ccc(O)cc1)C(=O)N[C@@H](CCC(=O)O)C(N)=O | ELISA | CD-1 mice | blood | sc | 10 nmol/kg | 1 |
| C[C@H](CCC(=O)N[C@@H](CCCCNC(=O)C(F)(F)F)C(=O)O)[C@H]1CC[C@H]2[C@@H]3[C@H](O)C[C@@H]4C[C@H](O)CC[C@]4(C)[C@H]3C[C@H](O)[C@]12C | – | C57BL/6J mice | gallbladder | oral | dose not given | 4 to 7 |
| CCn1ccc(-c2cc(-c3cnn(C)c3)cc([C@@H](C)NC(=O)c3cc(OCCN(C)C)ccc3C)c2)n1 | – | C57BL/6J mice, male | plasma | oral | 50 mg/kg | 1.67 |
| CN1c2ccc(OC(=O)Nc3ccncc3)cc2C2(C)CCOC12 (centres unmarked) | – | wild-type mice | brain | subcutaneous | 20 mg/kg | ~1 |
| CCCCCC1=C(NCC)C(=O)C(C/C=C(\C)CCC=C(C)C)=C(O)C1=O | – | CD-1 mice | plasma | oral | 50 mg/kg | 4 |
| CC[C@H](C)[C@H](NC(=O)[C@H](CC(N)=O)NC(=O)[C@H](CC(N)=O)NC(=O)[C@H](CCCNC(=N)N)NC(=O)[C@H](CC(N)=O)NC(=O)[C@H](CCCNC(=N)N)NC(=O)[C@H](CCCCN)NC(=O)[C@@H](NC(=O)[C@H](CC(N)=O)NC(=O)[C@H](CCSC)NC(=O)[C@H](CC(C)C)NC(=O)[C@H](Cc1c[nH]c2ccccc12)NC(=O)[C@H](CCC(N)=O)NC(=O)[C@@H](NC(=O)[C@H](Cc1ccccc1)NC(=O)[C@H](CC(=O)O)NC(=O)[C@H](CCC(N)=O)NC(=O)[C@H](C)NC(=O)[C@H](CCCNC(=N)N)NC(=O)[C@H](CCCNC(=N)N)NC(=O)[C@H](CO)NC(=O)[C@H](CC(=O)O)NC(=O)[C@H](CC(C)C)NC(=O)[C@H](Cc1ccc(O)cc1)NC(=O)[C@H](CCCCN)NC(=O)[C@H](CO)NC(=O)[C@H](Cc1ccc(O)cc1)NC(=O)[C@H](CC(=O)O)NC(=O)[C@H](CO)NC(=O)[C@@H](NC(=O)[C@H](Cc1ccccc1)NC(=O)[C@@H](NC(=O)CNC(=O)[C@H](CCC(=O)O)NC(=O)[C@@H](CO)NC(=O)[C@@H](N)Cc1c[nH]cn1)[C@@H](C)O)[C@@H](C)O)C(C)C)[C@@H](C)O)C(=O)N[C@@H](C)C(=O)N[C@@H](CSCC(=O)NCCOCCOCCOCCOCCC(=O)O[C@H]1CC[C@@]2(C)C(=CC[C@H]3[C@@H]4CC[C@H]([C@H](C)CCCC(C)C)[C@@]4(C)CC[C@@H]32)C1)C(N)=O | – | diet-induced obese mice | plasma | subcutaneous | dose not given | ~5 |
| CC(C)C[C@H](NC(=O)[C@H](Cc1ccccc1)NC(=O)CNC(=O)C/C=C(\F)[C@@H](N)Cc1ccc(O)cc1)C(=O)O | – | BALB/c mice | brain | intravenous | 50 mg/kg | 0.0833 |

Repeated from above:
| SMILES | technique | species | sample | route | dose | Tmax [h] |
| --- | --- | --- | --- | --- | --- | --- |
| CC(C)C[C@H](NC(=O)[C@H](Cc1ccccc1)NC(=O)CNC(=O)C/C=C(\F)[C@@H](N)Cc1ccc(O)cc1)C(=O)O | – | BALB/c mice | brain | intravenous | 50 mg/kg | 0.0833 |
